Measurements gathered from unrelated publications.
Each numbered part is a random draw from the data of one study; scales do not carry over between parts.

Sample 1
Target: Fragile X messenger ribonucleoprotein 1, C-terminal low-complexity region (Fmr1, Mus musculus, UniProt P35922)
Method: RNA Bind-n-Seq
Form: RNA
Medium: in vitro
Tested at: 200 nM
Setting: whole 134-nt RNA, ends assumed
Added: 150 mM KCl
Relative to: input library
Direction: higher = stronger binding
`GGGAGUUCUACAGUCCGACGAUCCCUGUGCUACACAUCGUAUGUACCGAAUCGGGAAAAAAGGGGAAAAAAGGGAAAAAAGGGAAAGUAUUAUGUUACGCCGUUCGGAUCUGCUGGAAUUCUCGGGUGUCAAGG` gave a log2 enrichment of -0.469.
With `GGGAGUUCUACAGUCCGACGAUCUGGAACAGCAGCUGCCACUCAGGCGUAAUUCCCACCUAGAGGAGAGUUUCACAUCCACCGAAGAAUCUUCCGAAGAAAAUGUCAACUUUUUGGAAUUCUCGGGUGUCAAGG` the log2 enrichment was 0.444.
`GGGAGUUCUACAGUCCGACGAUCCCUGUGCUACACAUCGUAUGUACCGAAUCGGGGAAAAAAAGGGGUUUGGGGAAAAAGGGGAAAGUAUUAUGUUACGCCGUUCGGAUCUGCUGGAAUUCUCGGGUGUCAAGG` has a log2 enrichment of 0.262.
`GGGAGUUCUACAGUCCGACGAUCUCAAGUCCUGUGCUACACAUCGUAUGUACCGAAUCGGGGUGGGGAGGGGUGGGGAAAGUAUUAUGUUACGCCGUUCGGAUCUGCACUUCCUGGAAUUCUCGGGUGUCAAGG` gave a log2 enrichment of 1.36.
The log2 enrichment of `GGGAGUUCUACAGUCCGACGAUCACCAUGCAGGUGGGCAUCUUUGGGAAGUGGAAAAAGGGGGGGAUAGGGAGGGGGGUAACACUUUGGGAACAGGUGGUCCCAGGUCGUUUCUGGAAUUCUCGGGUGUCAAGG` is reported as 0.675.
`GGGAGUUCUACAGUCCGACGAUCAACUAAUACUCUUAAAUGGUCUUUCAGUAUAGUGGUUCUUACGUAGUUUAACAUAGCUAUAAAUUGAGUUUAACAAUUUAUAAACUCAAGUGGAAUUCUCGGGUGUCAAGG` gave a log2 enrichment of -0.5.
`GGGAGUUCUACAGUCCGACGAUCCUCAAGUCCUGUGCUACACAUCGUAUGUACCGAAUCGGGAGGGAGGGUUUGGGAAAGUAUUAUGUUACGCCGUUCGGAUCUGCACUUCCAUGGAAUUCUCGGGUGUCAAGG` has a log2 enrichment of 1.31.
For `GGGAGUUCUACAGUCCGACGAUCGUCCUGUGCUACACAUCGUAUGUACCGAAUCGGGGUUUGGGGUUUUUUUGGGGUGGGGAAAGUAUUAUGUUACGCCGUUCGGAUCUGCACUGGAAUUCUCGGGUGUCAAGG`, the log2 enrichment was 0.993.
`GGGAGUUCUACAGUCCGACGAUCUCCUGUGCUACACAUCGUAUGUACCGAAUCGGGGAAAAAGGGGAAAAAGGGAAAAAGGGAAAGUAUUAUGUUACGCCGUUCGGAUCUGCAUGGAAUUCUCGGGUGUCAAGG` has a log2 enrichment of 0.0494.
The log2 enrichment of `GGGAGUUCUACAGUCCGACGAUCCCUCAAGUCCUGUGCUACACAUCGUAUGUACCGAAUCGGAAGGAAGGAAGGGGAAAGUAUUAUGUUACGCCGUUCGGAUCUGCACUUCCAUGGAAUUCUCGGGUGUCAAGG` is reported as -0.109.

Sample 2
Target: Histone acetyltransferase KAT6A, both winged helices, GST fusion (KAT6A, Homo sapiens, UniProt Q92794, residues 1-181)
Method: protein binding microarray
Form: double-stranded DNA, one strand shown
Medium: in vitro
Tested at: not given
Setting: 8-mer, flanks averaged, mean of 2 arrays, mostly near background
Relative to: not given
Direction: higher = stronger binding
Construct (chain): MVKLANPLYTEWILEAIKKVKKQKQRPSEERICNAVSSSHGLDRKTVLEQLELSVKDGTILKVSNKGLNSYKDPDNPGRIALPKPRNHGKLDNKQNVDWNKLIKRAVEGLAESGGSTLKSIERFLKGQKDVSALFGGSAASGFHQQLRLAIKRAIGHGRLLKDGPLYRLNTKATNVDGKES
With `CTGCCCGC` the E-score was 0.281.
For `ATACACAG`, the E-score was -0.00809.
For `CCATGGGC`, the E-score was -0.163.
With `ATATTGAA` the E-score was -0.153.
The E-score of `ACGTAAAG` is reported as -0.0715.
With `CGCAGCCA` the E-score was -0.00466.
`CAAAAAAG` has an E-score of -0.0454.
`AAATTGAG` gave an E-score of -0.183.
For `GATAGTCA`, the E-score was 0.00871.
`CATAAGCA` gave an E-score of -0.068.
`GCGTCTGA` gave an E-score of 0.0709.
For `TAAATGCA`, the E-score was -0.183.
`AGCCTTCA` has an E-score of -0.0956.
For `TTAGAGAA`, the E-score was -0.175.
`AGAGAGAA` has an E-score of -0.192.
The E-score of `AGATTCCG` is reported as 0.173.
`CGCGGGGC` has an E-score of 0.259.
`CAACGACA` has an E-score of -0.0177.
`ATGTGATA` gave an E-score of 0.0249.
`ATCGCCGA` has an E-score of 0.334.
The E-score of `AGGCCAAC` is reported as -0.141.
With `GGCTATGA` the E-score was -0.00744.
`ACCTCAGG` gave an E-score of -0.152.

Sample 3
Target: RNA binding protein fox-1 homolog 2, RRM domain, GST-SBP tag (RBFOX2, Homo sapiens, UniProt O43251-10, residues 100-194)
Method: RNA Bind-n-Seq
Form: RNA
Medium: in vitro
Tested at: 365 nM
Setting: natural RNA segment, single round, ends assumed
Relative to: no-protein control
Direction: higher = stronger binding
Construct (chain): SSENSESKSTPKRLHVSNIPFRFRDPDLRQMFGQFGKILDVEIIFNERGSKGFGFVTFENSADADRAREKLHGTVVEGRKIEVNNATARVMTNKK
Under “RBNS enrichment (R)”, `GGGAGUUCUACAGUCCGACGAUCGGCCAUUUUAGUUUGAGUUCGAGCCAACCACCUCUGUUGGUUAGAUGAUGAAUAAAAAGGUUCUGAAAAAAGGUCUGGAUCCAGUUGUCUUUCUGCAUGGAUUAAAGAGUUGGAAUUCUCGGGUGCCAA` is recorded as 1.59.
Under “RBNS enrichment (R)”, `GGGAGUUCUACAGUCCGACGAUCCCCACCUUGAACAUCAUGAGCUGUUGUUAUUAGUCUUGGAAGCAGAGUCUGGGUUGGUGUGGAUAGCAAAGGAGGAAGUCUGAGCCCCUCAUUGGUCUUCCUCCCACCUGUGGAAUUCUCGGGUGCCAA` is recorded as 2.02.
For `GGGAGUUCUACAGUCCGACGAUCUGAGAGUAGACCUGGUUACCGGCAGUGCAUGAUGUCAGGGUCAGCCUGAAGCUAUUGCUGCUCGUCUACCAGGAGGAUGUGGAGAUCUUUAGACACGAAAUGCGUGCUAGUGGAAUUCUCGGGUGCCAA`, “RBNS enrichment (R)” read 2.47.
For `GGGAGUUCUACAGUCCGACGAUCGCUGCUGUGAAACAGCUCUGAUGAACACUAAAUAUUAAUUUCAAUUAGCUAGAUUGUACAUACUUGCAGAUUUAACAAAAUUUUAGGGAAAUUGAAAAAGACAUGUAGAAUGGAAUUCUCGGGUGCCAA`, “RBNS enrichment (R)” read 0.684.
Under “RBNS enrichment (R)”, `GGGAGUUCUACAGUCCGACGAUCGCCUGUUCCACCCCUUUGUUCACUUCGCGUUAACUGCUGUGGUAACUUUUUCAGGAUCUGUGUGAAGAAUGGUAAUGACGUAGUUGAAAGGAAAAUGUACUGUUGUGUGUUGGAAUUCUCGGGUGCCAA` is recorded as 0.864.
For `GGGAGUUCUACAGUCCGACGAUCUUUCUUGUGCUGACUAACUAUAAGCAUGAUCUUGUUAAUGCAUUUUUGAUGGGAAGAAAAGGUACAUGUUUACAAAGAGGUUUUAUGAAAAGAAUAAAAAUUGACUUCUUUGGAAUUCUCGGGUGCCAA`, “RBNS enrichment (R)” read 11.9.
`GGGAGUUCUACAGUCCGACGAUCGAAAGGAACCCCUUUGAGAGGUCGCGAGGCCCAUCUUUACUAGGACCCUUCCAUCUCUCCUGGGACAGGCAGGAACCAGAGGGACCAGGGCUCAAAUCUUGUACUAUGUGUGGAAUUCUCGGGUGCCAA` — result for “RBNS enrichment (R)”: 0.638.
`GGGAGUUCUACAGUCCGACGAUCGAAGCCUAAGCCUCUGCCUUCAAGCUGGAUCCUGUGCAGGGUGGGCAGGCAAGAACUCAGACAUGCCCAGCCUAGCCCAGGGCGGCCUGCAUCUGGCCCCAGAAGCCUCCUGGAAUUCUCGGGUGCCAA`: “RBNS enrichment (R)” 0.645.
Under “RBNS enrichment (R)”, `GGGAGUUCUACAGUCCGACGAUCUCUACUGCCCUCCCCUCCCCUAUCCAAGUAGCAGUUAAGUUCCAUCCAAAUACGUGGGACUCAAAGACUCCUAGUCAGCUGUAGUUCUGGAGGCUCUGAAUGUCUAACUUUGGAAUUCUCGGGUGCCAA` is recorded as 0.407.
`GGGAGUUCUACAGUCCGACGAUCGGAAAUGGGACUUUGUGCAGGUAACCACCCUGCACUUCAGGUAAUGUUCCUGUCACAGCUGUCGACUACCCCACGCUGCAGGAAAUCCAUUCAGAAAUGAGCUAACAGUCUGGAAUUCUCGGGUGCCAA`: “RBNS enrichment (R)” 0.262.
`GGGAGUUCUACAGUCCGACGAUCGGUGGGAAUCCAGCCUCUGUUAGAUAUGUCCAGAGAUGGAAACUCACUCCCCUACAAAAGAUGGAGCUUAAUGGAGAAAUUGCAACUUUCAUUAAAAAACAAAUUCAGAUUGGAAUUCUCGGGUGCCAA`: “RBNS enrichment (R)” 6.03.
`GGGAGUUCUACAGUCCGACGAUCUUAGCCGACCACGAGGAACCUUGUUUCGAAUUAGAGGCAGAGGAAGAGCCAGAGGAGUUUUUGCUGGGACAAAUACUGGUCCAAACAACUCAAAUACUACUUUUCAAAAGUGGAAUUCUCGGGUGCCAA`: “RBNS enrichment (R)” 0.308.

Sample 4
Target: Sal-like protein 4, full length isoform B (SALL4, Homo sapiens, UniProt Q9UJQ4-2, residues 1-616)
Method: universal PBM
Form: double-stranded DNA, one strand shown
Medium: in vitro
Tested at: not given
Setting: 8-mer, flanks averaged, mean of replicates
Direction: higher = stronger binding
The E-score of `GCTACAGA` is reported as -0.11.
`TCAGGTAA` has an E-score of 0.135.
With `GCGGATCC` the E-score was -0.252.
`GCCTCTTA` has an E-score of -0.0738.
With `CCGAAAAG` the E-score was 0.0289.
With `CAATTTGC` the E-score was -0.0386.
With `AATGAAAC` the E-score was 0.178.
For `GAAATCTC`, the E-score was 0.0147.
`CCCCAGAA` gave an E-score of -0.234.
The E-score of `GTTAGGTA` is reported as 0.119.
For `CGGAAGAG`, the E-score was -0.125.
With `CTGAAGCA` the E-score was -0.0657.
The E-score of `GACCGATA` is reported as 0.0114.
The E-score of `ATCCGCTG` is reported as -0.312.
`ATCTACCG` has an E-score of 0.0987.
`CTAACTCC` gave an E-score of -0.209.
The E-score of `GGATATAA` is reported as 0.169.

Excerpt of the above (sample 4):
The E-score of `GACCGATA` is reported as 0.0114.
`ATCTACCG` has an E-score of 0.0987.
For `CGGAAGAG`, the E-score was -0.125.
With `CCGAAAAG` the E-score was 0.0289.
The E-score of `GCTACAGA` is reported as -0.11.
With `GCGGATCC` the E-score was -0.252.
With `CTGAAGCA` the E-score was -0.0657.
`CTAACTCC` gave an E-score of -0.209.
